Results pooled from the literature.
A part holds a random share of what one study measured. Changes are numbered by the printed parent chain.
Chain of UniProt P62253 (whole entry, looked up): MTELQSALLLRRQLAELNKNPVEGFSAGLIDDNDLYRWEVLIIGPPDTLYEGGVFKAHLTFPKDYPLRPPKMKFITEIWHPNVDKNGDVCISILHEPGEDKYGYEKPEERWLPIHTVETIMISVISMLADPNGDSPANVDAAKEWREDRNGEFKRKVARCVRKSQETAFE
Chain of UniProt Q7Z7E8 (whole entry, looked up): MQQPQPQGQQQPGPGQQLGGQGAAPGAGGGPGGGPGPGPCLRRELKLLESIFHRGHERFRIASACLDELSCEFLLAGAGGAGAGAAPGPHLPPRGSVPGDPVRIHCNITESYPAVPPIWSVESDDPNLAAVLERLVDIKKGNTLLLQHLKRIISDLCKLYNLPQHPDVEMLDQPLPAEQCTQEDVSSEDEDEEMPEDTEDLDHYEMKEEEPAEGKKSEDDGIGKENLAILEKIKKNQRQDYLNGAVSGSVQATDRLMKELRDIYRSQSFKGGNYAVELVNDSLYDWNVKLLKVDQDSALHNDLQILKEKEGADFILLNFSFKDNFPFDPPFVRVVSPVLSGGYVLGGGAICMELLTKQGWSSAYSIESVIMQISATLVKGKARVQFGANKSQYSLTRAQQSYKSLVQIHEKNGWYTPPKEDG
Chain of UniProt Q9H832 (whole entry, looked up): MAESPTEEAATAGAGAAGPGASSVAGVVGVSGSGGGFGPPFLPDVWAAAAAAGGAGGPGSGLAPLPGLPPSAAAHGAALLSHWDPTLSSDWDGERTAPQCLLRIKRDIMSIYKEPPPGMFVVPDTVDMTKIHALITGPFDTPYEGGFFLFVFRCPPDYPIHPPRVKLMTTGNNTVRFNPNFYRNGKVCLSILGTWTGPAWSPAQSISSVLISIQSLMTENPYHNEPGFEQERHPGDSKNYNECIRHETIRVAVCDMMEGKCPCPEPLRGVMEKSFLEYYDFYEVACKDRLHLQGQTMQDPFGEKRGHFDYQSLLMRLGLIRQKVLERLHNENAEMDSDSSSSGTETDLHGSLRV
Chain of UniProt P61081 (whole entry, looked up): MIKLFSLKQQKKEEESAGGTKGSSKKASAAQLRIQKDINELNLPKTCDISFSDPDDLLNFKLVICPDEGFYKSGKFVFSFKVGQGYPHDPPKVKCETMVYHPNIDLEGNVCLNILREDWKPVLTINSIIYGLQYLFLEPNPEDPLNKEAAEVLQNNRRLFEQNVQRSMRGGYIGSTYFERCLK
Chain of UniProt Q8N2K1 (whole entry, looked up): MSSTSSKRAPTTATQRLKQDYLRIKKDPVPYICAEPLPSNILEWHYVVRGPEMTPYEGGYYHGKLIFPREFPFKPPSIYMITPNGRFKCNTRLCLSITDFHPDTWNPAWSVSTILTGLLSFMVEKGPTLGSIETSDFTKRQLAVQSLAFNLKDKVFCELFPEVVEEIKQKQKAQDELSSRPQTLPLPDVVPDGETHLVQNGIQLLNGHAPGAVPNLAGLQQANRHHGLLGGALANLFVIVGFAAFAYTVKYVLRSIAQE
Chain of UniProt Q9C0C9 (whole entry, looked up): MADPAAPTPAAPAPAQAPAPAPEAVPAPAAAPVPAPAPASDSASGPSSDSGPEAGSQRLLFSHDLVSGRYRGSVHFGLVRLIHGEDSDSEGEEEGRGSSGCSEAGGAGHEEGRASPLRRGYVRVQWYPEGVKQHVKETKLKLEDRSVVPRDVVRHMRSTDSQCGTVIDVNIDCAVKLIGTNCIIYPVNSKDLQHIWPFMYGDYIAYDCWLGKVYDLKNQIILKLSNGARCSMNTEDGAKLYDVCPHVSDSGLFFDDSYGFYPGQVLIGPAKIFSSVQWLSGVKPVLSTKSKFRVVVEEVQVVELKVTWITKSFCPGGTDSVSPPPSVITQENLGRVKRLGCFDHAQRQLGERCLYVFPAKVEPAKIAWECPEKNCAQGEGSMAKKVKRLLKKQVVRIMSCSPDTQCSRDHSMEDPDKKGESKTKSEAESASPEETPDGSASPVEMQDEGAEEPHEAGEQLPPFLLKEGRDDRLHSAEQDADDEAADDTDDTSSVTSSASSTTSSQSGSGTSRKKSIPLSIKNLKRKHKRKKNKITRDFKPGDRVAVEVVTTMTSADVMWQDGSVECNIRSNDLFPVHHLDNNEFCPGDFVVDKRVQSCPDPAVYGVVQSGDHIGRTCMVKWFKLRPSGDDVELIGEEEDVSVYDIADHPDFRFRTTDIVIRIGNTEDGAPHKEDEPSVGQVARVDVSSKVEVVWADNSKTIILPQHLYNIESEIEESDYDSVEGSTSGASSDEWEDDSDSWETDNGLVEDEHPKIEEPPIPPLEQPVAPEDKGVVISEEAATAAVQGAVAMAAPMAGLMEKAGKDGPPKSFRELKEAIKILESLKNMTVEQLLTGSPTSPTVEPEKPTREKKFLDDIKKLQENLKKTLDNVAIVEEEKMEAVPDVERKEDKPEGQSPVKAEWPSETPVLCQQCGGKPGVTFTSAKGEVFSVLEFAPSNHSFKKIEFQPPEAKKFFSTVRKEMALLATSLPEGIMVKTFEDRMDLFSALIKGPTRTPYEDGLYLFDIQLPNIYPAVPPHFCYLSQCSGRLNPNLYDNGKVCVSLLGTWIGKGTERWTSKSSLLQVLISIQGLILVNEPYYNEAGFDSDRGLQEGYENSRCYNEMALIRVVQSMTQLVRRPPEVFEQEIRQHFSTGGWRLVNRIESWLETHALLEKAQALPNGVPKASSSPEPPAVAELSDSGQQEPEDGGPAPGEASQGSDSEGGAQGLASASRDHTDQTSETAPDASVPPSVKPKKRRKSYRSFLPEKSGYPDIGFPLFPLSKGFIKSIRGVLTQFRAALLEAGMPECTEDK
Chain of UniProt P63146 (whole entry, looked up): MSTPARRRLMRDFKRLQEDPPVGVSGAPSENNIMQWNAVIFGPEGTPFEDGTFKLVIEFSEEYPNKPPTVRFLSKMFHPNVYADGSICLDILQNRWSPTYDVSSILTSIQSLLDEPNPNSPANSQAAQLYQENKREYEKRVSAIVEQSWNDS
Chain of UniProt P68036 (whole entry, looked up): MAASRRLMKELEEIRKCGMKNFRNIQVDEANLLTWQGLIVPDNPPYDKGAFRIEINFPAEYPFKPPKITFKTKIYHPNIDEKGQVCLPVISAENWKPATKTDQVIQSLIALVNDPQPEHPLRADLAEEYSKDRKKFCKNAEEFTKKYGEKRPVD
Chain of UniProt Q9NPD8 (whole entry, looked up): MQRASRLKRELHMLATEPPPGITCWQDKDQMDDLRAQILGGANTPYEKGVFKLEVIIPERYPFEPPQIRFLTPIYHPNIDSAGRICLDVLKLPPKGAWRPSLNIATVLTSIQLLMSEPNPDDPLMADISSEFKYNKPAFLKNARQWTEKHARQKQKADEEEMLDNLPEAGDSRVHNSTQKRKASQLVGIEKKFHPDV
Chain of UniProt O00762 (whole entry, looked up): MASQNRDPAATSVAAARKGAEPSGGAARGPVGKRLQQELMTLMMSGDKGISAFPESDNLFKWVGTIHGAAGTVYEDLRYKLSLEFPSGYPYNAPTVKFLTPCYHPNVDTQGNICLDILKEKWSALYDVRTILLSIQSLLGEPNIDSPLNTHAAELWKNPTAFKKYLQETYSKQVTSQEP
Chain of UniProt Q712K3 (whole entry, looked up): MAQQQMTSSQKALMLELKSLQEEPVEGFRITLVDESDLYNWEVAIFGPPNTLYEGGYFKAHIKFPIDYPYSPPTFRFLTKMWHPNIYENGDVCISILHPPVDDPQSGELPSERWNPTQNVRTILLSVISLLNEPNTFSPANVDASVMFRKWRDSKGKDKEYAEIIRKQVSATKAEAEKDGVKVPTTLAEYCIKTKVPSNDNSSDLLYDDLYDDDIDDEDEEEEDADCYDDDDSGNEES
Chain of UniProt P51668 (whole entry, looked up): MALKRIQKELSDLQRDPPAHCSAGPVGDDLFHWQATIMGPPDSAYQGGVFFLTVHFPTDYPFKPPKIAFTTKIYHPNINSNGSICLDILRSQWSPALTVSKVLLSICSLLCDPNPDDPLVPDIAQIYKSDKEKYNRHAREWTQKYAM
Chain of UniProt Q969T4 (whole entry, looked up): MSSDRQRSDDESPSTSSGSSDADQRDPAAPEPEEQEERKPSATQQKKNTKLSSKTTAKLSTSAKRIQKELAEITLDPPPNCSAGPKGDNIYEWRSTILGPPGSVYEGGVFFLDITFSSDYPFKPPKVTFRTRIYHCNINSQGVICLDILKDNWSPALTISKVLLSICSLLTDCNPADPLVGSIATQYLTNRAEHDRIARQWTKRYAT

Set 1
Target: Transcription factor Sp1 (SP1, Homo sapiens, UniProt P08047, residues 1-785, full length assumed)
Chain of UniProt P08047 (whole entry, looked up): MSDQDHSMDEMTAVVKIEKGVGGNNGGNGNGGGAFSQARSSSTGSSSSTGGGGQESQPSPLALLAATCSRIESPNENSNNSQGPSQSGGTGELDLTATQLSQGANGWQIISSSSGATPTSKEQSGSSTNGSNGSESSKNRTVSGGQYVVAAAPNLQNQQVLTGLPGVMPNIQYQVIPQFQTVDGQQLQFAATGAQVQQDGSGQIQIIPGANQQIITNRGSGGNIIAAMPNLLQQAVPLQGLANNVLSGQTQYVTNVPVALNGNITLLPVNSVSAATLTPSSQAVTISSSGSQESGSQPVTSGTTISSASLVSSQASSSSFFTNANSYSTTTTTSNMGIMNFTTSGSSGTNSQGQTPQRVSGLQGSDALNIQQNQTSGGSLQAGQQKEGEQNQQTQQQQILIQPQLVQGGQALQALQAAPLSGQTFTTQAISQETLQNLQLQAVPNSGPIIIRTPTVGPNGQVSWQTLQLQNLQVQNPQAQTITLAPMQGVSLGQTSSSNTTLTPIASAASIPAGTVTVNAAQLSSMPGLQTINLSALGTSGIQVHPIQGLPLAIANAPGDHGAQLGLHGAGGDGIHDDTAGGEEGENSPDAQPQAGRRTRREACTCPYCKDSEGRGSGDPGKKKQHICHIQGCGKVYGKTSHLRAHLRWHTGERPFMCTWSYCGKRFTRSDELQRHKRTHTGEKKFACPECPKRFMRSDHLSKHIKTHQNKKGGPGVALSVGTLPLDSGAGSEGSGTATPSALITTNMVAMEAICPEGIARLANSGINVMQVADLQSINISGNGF
Technique: protein-binding microarray
Molecule type: double-stranded DNA, one strand shown
Sample: in vitro
Concentration: not given
Notes: k-mer, scored over probes, only values ≥0.25
Reading: higher = stronger binding
Strand	E-score
AAACGCCC	0.264
AGTACTAC	0.253
AATTTCCC	0.284
ATGATACG	0.27
ATTAGGGG	0.309
CCGCCTAC	0.362
ACAATATG	0.267
GCCCCAAC	0.344
GGTGGGGA	0.471
AGGGGGGA	0.287
GCATTATA	0.282
ATAAGTAC	0.257

Set 2
Target: CCNA2, cyclin fold, Cln2 fusion (human)
Technique: yeast growth competition, sequencing
Sample: yeast
Notes: weak parent motif
Baseline: not given
Reading: higher = stronger binding
Starting sequence: CDC42EP1 docking peptide (human); SLVVGKLSFDSSP
Change	normalised enrichment score
SAVVGKLSFDSSP [L2A]	0.278
SLVVGKLSFDSAP [S12A]	0.197
SLAVGKLSFDSSP [V3A]	0.293
SLVVGKLAFDSSP [S8A]	-0.00496
SLVVGKLSADSSP [F9A]	-0.529
SLVVAKLSFDSSP [G5A]	0.172

Set 3
Target: RNA binding protein fox-1 homolog 2, RRM domain, GST-SBP tag (RBFOX2, Homo sapiens, UniProt O43251-10, residues 100-194)
Technique: RNA Bind-n-Seq
Molecule type: RNA
Sample: in vitro
Concentration: 365 nM
Notes: natural RNA segment, single round, ends assumed
Baseline: no-protein control
Reading: higher = stronger binding
All sequences stand within: GGGAGUUCUACAGUCCGACGAUC … UGGAAUUCUCGGGUGCCAA
Target sequence (chain): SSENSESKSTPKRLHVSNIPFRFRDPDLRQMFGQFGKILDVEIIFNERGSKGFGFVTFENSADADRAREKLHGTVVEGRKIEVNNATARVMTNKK
Strand	RBNS enrichment (R)
UUCAAACCAGAAGACAUUUGUGGAUAAAUCUGAACUCACUUCCUGUGUGUAACUUCUAACUUCACUGGUUCCUCCCAUCUGAAUUGGCCACAUGCUUGCUGAAGAGACUU	0.676
GAGUAACUAUUUUCUUUCUGUUUUCUUUUACUCUGCUUACAUUUUAUAAGUUUAAGGUCAGCUGUCAAAAGGAUAACCUGUGGGGUUAGAACAUAUCACAUUGCAACACC	0.28
GGGCCGGCGCUAGGAUUUGCACUAAUGUUCCUCUCCCCGCGGGUGGGGGCGGGGAAAUUCAUAUCCCCUGUUCGUCUCAUGCGCGUCCUCCGUCCCCAAUCUAAAAAGCA	2.07
UGUUCAUAUCCCACGCCUGGGCUCUUGCCAGCAGUGGAGUUACUGUAGAGGGAUGUCCCAAGCUUGUUUUCCAAUCAGUGUUAAGCUGUUUGAAACUCUCCUGUGUCUGU	0.326
UCCUUCUGGAACAGUGUGAGACAAUUAAACUUCAUUCCCUGUGGGUUAGCACUUAAUAUGUAGAAGCUUGGGCUUGAAGGUGAUGUCCACCUUAAUCAGCAUCACUUGCA	12.1
UCUCUGGCCUCCCCCACAAGAUGCCAGUAGCAAUCUUCUUCCCGAAGCUGUGACAAUCAGAAAUGUCUCUUAGACAUUUCCAAAUGUCCCCUGGGGCAUGGGAGGGUUUC	0.153
GCCUGUUAGAAAUUAAAAAAUACAGUACAGCUUGCCGUUCCUCUGGUUUGUGAAGUUUCACUCGUUGCCUAAAAUGCCCGAUGCCUCGUCUCCAGACCUUGCUGCCCUUG	0.502
ACAUUCUUGUCUCCUGCUUUAGAAUGCUAGUGUGUAUCUAUCAUGUAUGCAAUACUUUCCCCCUUUUUGCUUUGCUAACCAAAGAGCAUAUAUUUUACUGUCAGUUGUCU	1.26
GAUUUGUGAAUAUUUUUCAUUCCAUCAACAAGGGAGUUUAAAUACUAUAUGUGAGACUGACAAAAACCUUAAUGUAAUUUACUUAUAAUGCCAGAAGGAAAACACUAUUU	0.962
CUGUGGCUGAAUCAGGUGUCCAGGUGAAGACAGGCCCUGUCCUGGAACCUGGAAUCACACAUACCUCGUGGUACUUUUGCCUUAGAUUUUACACUCUCAACAGCCAAGCA	0.996
AAUCACCUGAAGAAGGUGAACCCCUGCUAACCGGGGUGAAGAUGAGCCACCUUCCCAUCCCAGCACCAGAGACUGCAGUUUCCCUCAGUCCUCCACCCUCCCACUGCCGC	0.652
CCAGACUUUAUAUUACAUCUCUGAAGUUCUUGAUGUGGGGAAGAUUGACUUUUAUUCCAUUUUUAUAUGAAGGUGUUAGAUAUAGCCAUCAAUUUAUUUUUCUACAUUCC	0.449

Set 4
Target: Histone acetyltransferase KAT6A, winged helix 2, GST fusion (KAT6A, Homo sapiens, UniProt Q92794, residues 85-181)
Technique: protein binding microarray
Molecule type: double-stranded DNA, one strand shown
Sample: in vitro
Concentration: not given
Notes: 8-mer, flanks averaged, mean of 2 arrays, mostly near background
Baseline: not given
Reading: higher = stronger binding
Residues (chain): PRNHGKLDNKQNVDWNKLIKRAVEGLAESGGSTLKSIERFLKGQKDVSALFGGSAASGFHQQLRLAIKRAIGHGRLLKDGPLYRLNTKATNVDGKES
Strand	E-score
AACGATCG	-0.107
GGACTAGA	-0.0676
ACCGCGGG	0.206
CACCATGG	-0.0786
CATTGTCA	-0.00581
ACAATTGT	-0.11
CGCGGGCC	0.204
AATTTTTG	-0.0767
AGTTGTTC	-0.174
CAATGCTA	-0.00757
AATTAGGT	0.167
CCTAAGTA	-0.0655
CGTGGCCA	0.0592
ACTGGCCT	0.0211
ATACTAAA	0.0405
CTCTAGCC	0.0319
CTGTTACC	-0.17
AACGGTTG	-0.117
ATGGTCTG	-0.0112
GAGGTTTA	0.0933
ATGCCGAC	0.0465
TACAGCCA	0.0639
GCGCTAAA	0.0382
GATCTCGC	0.126
CATCTGAC	-0.162

Set 5
Sequence: ALDRLEKLLRCSRCTNILREPVCLGGCEHIFCSNCVSDCIGTGCPVCYTPAWIQDLKI (BARD1 RING domain (UniProt Q99728))
Technique: yeast two-hybrid
Sample: yeast
Notes: mostly zero background
Baseline: not given
Reading: higher = stronger interaction
target	lacZ reporter activity
BIRC6 UBC core domain (UniProt Q9NR09)	0
UBE2J2 UBC core domain (UniProt Q8N2K1)	0
UBE2O UBC core domain (UniProt Q9C0C9)	0
UBE2Q1 UBC core domain (UniProt Q7Z7E8)	0
UBE2G1 UBC core domain (UniProt P62253)	0
UBE2B UBC core domain (UniProt P63146)	0
UBE2Z UBC core domain (UniProt Q9H832)	0
UBE2I UBC core domain (UniProt P63279)	0
UBE2T UBC core domain (UniProt Q9NPD8)	0
UBE2R2 UBC core domain (UniProt Q712K3)	0
UBE2E3 UBC core domain (UniProt Q969T4)	0
UBE2M UBC core domain (UniProt P61081)	0
UBE2L3 UBC core domain (UniProt P68036)	0
UBE2J1 UBC core domain (UniProt Q9Y385)	0
UBE2C UBC core domain (UniProt O00762)	0
UBE2D1 UBC core domain (UniProt P51668)	0

Set 6
Target: Sal-like protein 4, full length isoform B (SALL4, Homo sapiens, UniProt Q9UJQ4-2, residues 1-616)
Technique: universal PBM
Molecule type: double-stranded DNA, one strand shown
Sample: in vitro
Concentration: not given
Notes: 8-mer, flanks averaged, mean of replicates
Reading: higher = stronger binding
Strand	E-score
CGAGGAAG	-0.175
CGCGTATA	0.162
AAATTGTA	0.324
GGGTTCTA	-0.161
AGCTAGAA	-0.0613
AGGTATGC	0.156
AGGCAGAT	-0.0337
GCCCGGCC	-0.395
AGTCGCCA	-0.272
GCCCCACA	-0.31
ATATTCCA	0.335
ACGCGGGA	-0.127
CGTAAAAG	0.144
AACTCTTC	-0.066
GTACTGCA	-0.0899
GAGTGTCA	0.0162
AAGTTAAA	0.208
ACGGGCTA	-0.139
AGCACAAC	0.0353
ATTGAAGG	0.111
ATAACCAT	0.317
CAAGTCGA	0.00763
CCGATCAC	-0.0398
AAATAAGG	0.105
CGTAGTGC	-0.166

Set 7
Target: Phosphate system positive regulatory protein PHO4, full length, GST-tagged (PHO4, Saccharomyces cerevisiae, UniProt P07270, residues 1-312)
Technique: competition protein-binding microarray
Molecule type: double-stranded DNA, one strand shown
Sample: in vitro
Concentration: 2 µM
Notes: whole 60-bp probe, lowest competitor level
Together with: Cbf1 competitor, 0.05 µM
Reading: higher = stronger binding
All sequences stand within: … GTCTTGATTCGCTTGACGCTGCTG
Residues (chain): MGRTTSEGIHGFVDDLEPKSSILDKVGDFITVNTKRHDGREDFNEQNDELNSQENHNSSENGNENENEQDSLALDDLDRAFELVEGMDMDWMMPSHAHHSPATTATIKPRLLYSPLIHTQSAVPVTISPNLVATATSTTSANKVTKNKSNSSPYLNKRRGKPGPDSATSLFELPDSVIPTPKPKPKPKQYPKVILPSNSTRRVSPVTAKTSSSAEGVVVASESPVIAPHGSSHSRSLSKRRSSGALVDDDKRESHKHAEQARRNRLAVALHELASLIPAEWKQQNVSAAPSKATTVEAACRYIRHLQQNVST
Strand	fluorescence intensity [a.u.]
CCTCCGTACCACCCAAACGTGTAGTTTTGATGTTTT	9530
TTTCCTCTTGAGATGGACGTGCTTTAGCCGGCCGGA	5470
CATACCCAACCTTGTCACGAAACTTAAGATATTTGT	4040
TTATCTGACGTCCATCACGTGAAGTGTTTTGCGTAG	13800
TGCGCAACAACTTGTTGTGTGGGTGTATGTCTAGAA	4680
CGTCCTAGTGATTTTCACGTGATGTCCATGAGGAAG	11800
CTAACGAAGGTTTGCAGAGTGGGTGACAAGCCAAGT	3500
ACATACAAATTTCCGCACGTTTTTAAACTTTTCCGG	16800
GTCGGTTTCATCTTCTCCGTGATGGCTTTGCATCTA	3970
CGCCGTTCAGGGGTCCATGTGCCTTGGACGATATTA	9920
CGGGGTTAAGTTTGTTTGGTGGGTGGCTTGCAGCAG	5530
GATGCTAAGAAGATATCCGTGATGGGCATCCGAGCT	3130
CAGCAAGTGTCCCAGCATGTGATGCTCACCAATCAG	8310
TGGAGCTGTTGCGACCTTATTAGAACACCAACACTT	3520
AAAGCGGTAATTTGTCACCCAACTTCACATATCTAT	3310
AAAGCGGTAATTTAGCACGTGTTTTCACATATCTAT	19000
AATGCTTGAAAAATTCTCGTGCAAACGGTCCCCTAC	6600
AAATGCAGCCAAAGATGCGTGCCGATGCAGTTAGCT	7350
CCAGAACGCCCAGAAAACGTGAAGGACACTACATAC	8890
TTTTCCGGCAAGAGTCGCGTGATGGTTTTTTCTAAT	6770
GTTTCTGTCGCAAAGCACGTTATGGCCACAATTTTG	8500
GGTAATGACATTCGTCACGTGCTTTAGGGCTTGGTG	15800
ACTCTTGGCCAAAGACCCGTGGTGAAGCCATGAATC	8680
CTTTTATGATCGAGTCACCTGACGAACCATTCTTGA	3590
CTTATTCGTATGAAGCATGTGACGCTGGTATAAGAC	12100

Set 8
Target: ABI1, truncated, D143A, DHFR fusion (Arabidopsis thaliana)
Technique: DHFR PCA, deep sequencing
Sample: yeast
Notes: methotrexate growth selection, single substitutions
Together with: (+)-ABA 710 µM
Baseline: wild-type fitted maximum
Reading: higher = stronger binding
Starting sequence: PYL1, truncated, DHFR fusion (Arabidopsis thaliana); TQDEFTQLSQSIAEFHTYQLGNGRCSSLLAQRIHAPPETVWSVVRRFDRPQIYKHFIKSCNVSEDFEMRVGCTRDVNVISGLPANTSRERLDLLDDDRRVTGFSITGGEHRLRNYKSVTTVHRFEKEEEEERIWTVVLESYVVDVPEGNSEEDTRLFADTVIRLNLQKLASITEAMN; partner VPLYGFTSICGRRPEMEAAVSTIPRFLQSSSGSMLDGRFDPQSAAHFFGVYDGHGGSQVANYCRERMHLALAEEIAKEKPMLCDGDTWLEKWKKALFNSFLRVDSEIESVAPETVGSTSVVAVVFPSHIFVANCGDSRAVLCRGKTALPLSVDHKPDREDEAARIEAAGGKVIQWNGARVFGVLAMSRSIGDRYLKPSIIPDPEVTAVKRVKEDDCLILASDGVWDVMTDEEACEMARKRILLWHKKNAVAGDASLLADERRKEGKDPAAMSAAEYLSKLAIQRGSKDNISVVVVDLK
Change	relative binding score
R113Q	108%
Q10G	108%
E4V	107%
N165K	68.9%
P36A	99.3%
Q10P	103%
V161L	97.7%
G21C	94.6%
D75K	100%
V100T	102%
E130C	109%
Y53Q	51.2%
G148E	94.6%
A175P	95.9%
P50H	-3.55%
H16M	31.4%

Some of these lines once more (set 1):
Strand	E-score
GGTGGGGA	0.471
GCATTATA	0.282
AGTACTAC	0.253
AGGGGGGA	0.287
ATAAGTAC	0.257
AAACGCCC	0.264
ACAATATG	0.267
GCCCCAAC	0.344
ATGATACG	0.27
AATTTCCC	0.284
CCGCCTAC	0.362
ATTAGGGG	0.309
